Published values of several laboratories.
Lines come from different studies, so protocols differ. Values joined by “and” are separate records of one study, mostly repeats; a detail may differ. ± marks the error that the study gave. In brackets after ≈: the same amount, converted by molar mass.

SMILES	organism	assay	test system	setting	scale	quantity	result
C[C@H](NC(=O)[C@H](CCCNC(=N)N)NC(=O)[C@H](Cc1c[nH]c2ccccc12)NC(=O)[C@H](CCCNC(=N)N)NC(=O)[C@H](Cc1c[nH]c2ccccc12)NC(=O)[C@H](Cc1c[nH]c2ccccc12)NC(=O)[C@H](Cc1c[nH]c2ccccc12)NC(=O)[C@H](CCCNC(=N)N)NC(=O)[C@H](Cc1c[nH]c2ccccc12)NC(=O)[C@@H](N)CCCNC(=N)N)C(N)=O	Candida albicans	broth microdilution	17546, RPMI 1640-MOPS	48 h, 30 °C	–	MIC	8 µM
N#Cc1ccc2[nH]c(O)c(-c3ccc(CN4CCOCC4)cn3)c2c1	Aspergillus fumigatus	–	–	20 µM	relative to: untreated	metabolic activity	≥ 80%
Nc1c(C(=O)NCc2ccc(C(=O)NCCCC3CCCCC3)cc2)cnn1-c1ccccc1	murine hepatitis virus	viral replication, nanoluciferase reporter	DBT	1 µM, 10 h	relative to: DMSO vehicle	inhibition	13%
COC(=O)C1=C(C)NC(C)=C(C(=O)OC(C)(C)CN(C)CCC(c2ccccc2)c2ccccc2)C1c1cccc([N+](=O)[O-])c1 (stereo not shown)	Aspergillus fumigatus	Alamar blue	–	62.5 µg/mL, 48 h, added: caspofungin 0.2 µg/mL	–	metabolic activity	20.2% and 22.6%
CS(=O)(=O)CCCn1c(Cn2c(=O)n(CC(F)(F)F)c3ccncc32)cc2cc(Cl)ccc21	respiratory syncytial virus	RT-qPCR	hospitalized infants 1-24 months, nasal swab	oral, 8 mg/kg daily, day 7, cohort 6-24 months	relative to: baseline	LS mean viral load change	-2.6 log10 copies/mL
CN1CCN(c2cnc3c(C4CCN(C(=O)c5ccc(OC(F)(F)F)cc5N)CC4)ncnc3c2)CC1	murine hepatitis virus	viral replication, nanoluciferase reporter	DBT	1 µM, 10 h	relative to: DMSO vehicle	inhibition	23%
CCCC(CCC)C(=O)Nc1ccccc1O	Artemia franciscana	LC-MS/MS metabolomics, refers to: 1-aminocyclopropanecarboxylic acid	larvae	concentration not given, 24 h, LC1 concentration	relative to: vehicle	log2 fold change	0.473
CC(=O)NCC(=O)N1[C@@H]2CC[C@H]1c1ccc(Nc3ncc(C(F)(F)F)c(NC4CCC4)n3)cc12	murine hepatitis virus	viral replication, nanoluciferase reporter	DBT	1 µM	relative to: DMSO vehicle	inhibition	58%
N=C(N)NCCC[C@H](NC(=O)CN)C(=O)N[C@@H](Cc1c[nH]c2ccccc12)C(=O)N[C@@H](CCCNC(=N)N)C(=O)N[C@@H](Cc1c[nH]c2ccccc12)C(=O)N[C@@H](Cc1c[nH]c2ccccc12)C(=O)N[C@@H](Cc1c[nH]c2ccccc12)C(=O)N[C@@H](CCCNC(=N)N)C(=O)N[C@@H](Cc1c[nH]c2ccccc12)C(=O)N[C@@H](CCCNC(=N)N)C(=O)N[C@@H](Cc1c[nH]c2ccccc12)C(N)=O	Candida albicans	broth microdilution	CGMCC 2.209, RPMI 1640-MOPS	48 h, 30 °C, added: NH4Cl 6 µM	–	MIC	8 µM
CC1=C(C#N)C(c2ccc3[nH]nc(C)c3c2)C(C#N)=C(C)N1	murine hepatitis virus	viral replication, nanoluciferase reporter	DBT	1 µM, 10 h	relative to: DMSO vehicle	inhibition	4%
COC(=O)N[C@H](C(=O)N1CCC[C@H]1c1ncc(-c2ccc(-c3ccc(-c4cnc([C@@H]5CCCN5C(=O)[C@@H](NC(=O)OC)C(C)C)[nH]4)cc3)cc2)[nH]1)C(C)C	Hepatitis C virus	–	replicon cells, genotype 1a	75% effect level, added: NS3 inhibitor, ratio 1:1	–	combination index	0.99
C[C@H]1COc2c(N3CCN(C)CC3)c(F)cc3c(=O)c(C(=O)O)cn1c23	Enterococcus faecalis and Enterococcus faecium	–	–	–	–	MIC90	> 32 µg/mL
CO[C@H]1/C=C/O[C@@]2(C)Oc3c(C)c(O)c4c(O)c(c(/C=N/N5CCN(C)CC5)c(O)c4c3C2=O)NC(=O)/C(C)=C\C=C\[C@H](C)[C@H](O)[C@@H](C)[C@@H](O)[C@@H](C)[C@H](OC(C)=O)[C@@H]1C	Mycobacterium avium subsp. hominissuis	REMA	ATCC 25291	–	–	MIC90	0.05 µg/mL (≈ 0.0608 µM)
CC(=O)O[C@H]1C[C@H](O[C@H]2[C@@H](O)C[C@H](O[C@H]3[C@@H](O)C[C@H](O[C@H]4CC[C@@]5(C)[C@H](CC[C@@H]6[C@@H]5C[C@@H](O)[C@]5(C)[C@@H](C7=CC(=O)OC7)CC[C@]65O)C4)O[C@@H]3C)O[C@@H]2C)O[C@H](C)[C@H]1O[C@@H]1O[C@H](CO)[C@@H](O)[C@H](O)[C@H]1O	human alphaherpesvirus 1	–	primary human keratinocytes, K26 GFP	–	relative to: CC50 over IC50	selectivity index	3.67
C[C@@H](O)[C@H]1C(=O)N2C(C(=O)O)=C(SCCN=CN)C[C@H]12	Klebsiella pneumoniae	–	K3	after induction, added: ceftazidime-avibactam, avibactam fixed	–	MIC	32 µg/mL
CCn1c(=O)c(-c2ccc(Cl)cc2Cl)cc2cnc(Nc3ccc(N4CCNCC4)c(F)c3)nc21	murine hepatitis virus	viral replication, nanoluciferase reporter	DBT	1 µM	relative to: DMSO vehicle	inhibition	47%
Cc1c2c(nn1C)CSCc1cc(n(C)n1)CSc1cc(c3ccccc3c1)OCCCc1c(C(=O)O)n(C)c3c-2c(Cl)ccc13	Staphylococcus aureus	label-free proteomics, refers to: pyrB	SA113	concentration not given	relative to: untreated	protein level fold change	0.0396
C[C@H](NC(=O)[C@H](CCCNC(=N)N)NC(=O)[C@H](Cc1c[nH]c2ccccc12)NC(=O)[C@H](CCCNC(=N)N)NC(=O)[C@H](Cc1c[nH]c2ccccc12)NC(=O)[C@H](Cc1c[nH]c2ccccc12)NC(=O)[C@H](Cc1c[nH]c2ccccc12)NC(=O)[C@H](CCCNC(=N)N)NC(=O)[C@H](Cc1c[nH]c2ccccc12)NC(=O)[C@H](CCCNC(=N)N)NC(=O)CN)C(N)=O	Candida albicans	broth microdilution	14936, RPMI 1640-MOPS	48 h, 30 °C	–	MIC	8 µM
CNC(C)C1CCC(N)C(OC2C(N)CC(N)C(OC3OCC(C)(O)C(NC)C3O)C2O)O1 (stereo not shown)	Bacillus cereus	broth microdilution	–	–	–	MLC	4 ± 2 µg/mL (≈ 8.38 µM)
CNCC(=O)N[C@@H](CO)C(=O)N[C@H]1[C@H](O)[C@@H](O)[C@H](n2ccc(N)nc2=O)O[C@@H]1C(N)=O	tobacco mosaic virus	inactivation activity	in vivo plant	–	–	EC50	77.4 ± 1.3 µg/mL (≈ 175 µM)
Nc1c([N+](=O)[O-])oc2ccc3ccccc3c12	Enterobacter cloacae	REMA	–	–	–	MIC90	> 32 µg/mL
Cc1cc(Nc2nccc(C)n2)cc(-c2cnc([C@@]3(O)CC[C@H](C(=O)O)C(C)(C)C3)s2)c1	murine hepatitis virus	viral replication, nanoluciferase reporter	DBT	1 µM, 10 h	relative to: DMSO vehicle	inhibition	-23%
Nc1ncnc2c1ncn2[C@@H]1O[C@@H]2COP(=O)(O)O[C@H]3[C@@H](O)[C@H](n4cnc5c(=O)[nH]cnc54)O[C@@H]3COP(=O)(O)O[C@H]2[C@H]1O	West Nile virus	RNA sequencing Reactome analysis, refers to: DNA Repair (R-HSA-73894)	HFF-1	concentration not given, upregulated pathways, added: West Nile virus infection	relative to: WNV-infected without compound	fold enrichment	2.67
COc1cc(Nc2nc(C)cc(-c3cnn4nc(OC)ccc34)n2)cc(C(F)(F)F)c1	murine hepatitis virus	viral replication, nanoluciferase reporter	DBT	1 µM	relative to: DMSO vehicle	inhibition	1%
C=C(CC[C@@H](C)[C@H]1CC[C@H]2[C@@H]3CCC4=CC(=O)CC[C@]4(C)[C@H]3CC[C@]12C)C(C)C	Leishmania mexicana	parasite growth, Giemsa stain count	C57BL/6 mouse bone marrow-derived macrophages, amastigotes	48 h	–	IC50	3.5 µM
